Published values gathered from unrelated publications.
Lines come from different studies, so protocols differ.
Organism: Acinetobacter baumannii

SMILES	test	test system	setting	MIC
C[C@@H](O)[C@H]1C(=O)N2C(C(=O)O)=C(S[C@@H]3CN[C@H](C(=O)N(C)C)C3)[C@H](C)[C@H]12		clinical isolate 2B5		96 µg/mL
Oc1c(Br)cc(Br)c2nc3ccccc3nc12		17978		> 100 µM
CO[C@@H]1[C@@H](OC(N)=O)[C@@H](O)[C@H](Oc2ccc3c(O)c(NC(=O)c4ccc(O)c(CC=C(C)C)c4)c(=O)oc3c2C)OC1(C)C	broth microdilution	ATCC 17978		20 µM
Cc1cc(NS(=O)(=O)c2ccc(N)cc2)no1	broth microdilution	NCTC 13424	20 h, ambient air	> 512 µg/mL
CC[C@H](C)CCCCC(=O)N[C@@H](CCN)C(=O)N[C@H](C(=O)N[C@@H](CCN)C(=O)N[C@H]1CCNC(=O)[C@H]([C@@H](C)O)NC(=O)[C@H](CCN)NC(=O)[C@H](CCN)NC(=O)[C@H](CC(C)C)NC(=O)[C@@H](CC(C)C)NC(=O)[C@H](CCN)NC1=O)[C@@H](C)O	broth microdilution	BAA-747, cation-adjusted Mueller-Hinton broth	18 to 20 h, 37 °C, 0.002% polysorbate 80	0.125 µg/mL
COc1ccc2ccc(O)c(/C=N/[C@H]3CCCC[C@H]3/N=C/c3ccc(OCCN4CCCCC4)cc3O)c2c1	bacterial growth, broth microdilution	carbapenem-resistant clinical isolate		> 40 µM
CC1(C)S[C@@H]2[C@H](NC(=O)[C@H](N)c3ccccc3)C(=O)N2[C@H]1C(=O)O		ATCC BAA-1797, resistant	18 h, 37 °C, LED light 10 min, 1.57 mW	> 128 µM
Cc1c(CN(C)C(=O)/C=C/c2cnc3c(c2)CCC(=O)N3)oc2ccccc12	broth microdilution	AR-0311		8 µg/mL
CO/N=C(\C(=O)N[C@@H]1C(=O)N2C(C(=O)O)=C(COC(C)=O)CS[C@H]12)c1csc(N)n1	broth microdilution	NCTC 13424	20 h, ambient air	256 µg/mL
CC1(C)S[C@@H]2[C@H](NC(=O)[C@H](N)c3ccc(O)cc3)C(=O)N2[C@H]1C(=O)O	broth microdilution		24 h, 37 °C, clinical isolate	> 400 µM
CC(C)(O/N=C(\C(=O)N[C@@H]1C(=O)N2C(C(=O)[O-])=C(C[n+]3ccccc3)CS[C@H]12)c1csc(N)n1)C(=O)O	broth microdilution	A1 clinical isolate	20 h	8 µg/mL
C[C@@H](O)[C@H]1C(=O)N2C(C(=O)O)=C(S[C@@H]3CN[C@H](C(=O)N(C)C)C3)[C@H](C)[C@H]12		HR2 clinical isolate		8 µg/mL
Cc1c(CN(C)C(=O)/C=C/c2cnc3c(c2)CC(NC(=O)OC(C)(C)C)C(=O)N3)oc2ccccc12 (stereo not shown)	broth microdilution	AR-0299		> 32 µg/mL
O=C(N[C@H](CO)[C@H](O)c1ccc([N+](=O)[O-])cc1)C(Cl)Cl	broth microdilution	ATCC 17978		80 µM
CN(C)[C@@H]1C(O)=C(C(N)=O)C(=O)[C@@]2(O)C(O)=C3C(=O)c4c(O)cccc4[C@@](C)(O)[C@H]3C[C@@H]12	broth microdilution	BNCC 194496		2 µg/mL
CC(C)C[C@@H]1NC(=O)[C@@H](Cc2ccccc2)NC(=O)[C@H](CCN)NC(=O)[C@@H](NC(=O)[C@H](CCN)NC(=O)[C@@H](N)[C@@H](C)O)CCNC(=O)[C@H]([C@@H](C)O)NC(=O)[C@H](CCN)NC(=O)[C@H](CCN)NC1=O		ATCC 17978	compound alone	> 200 µg/mL

Excerpt of the above:
SMILES	test	test system	setting	MIC
C[C@@H](O)[C@H]1C(=O)N2C(C(=O)O)=C(S[C@@H]3CN[C@H](C(=O)N(C)C)C3)[C@H](C)[C@H]12		clinical isolate 2B5		96 µg/mL
Oc1c(Br)cc(Br)c2nc3ccccc3nc12		17978		> 100 µM
